Measured values from different studies.
Lines come from different studies, so protocols differ. ± gives the spread as reported.

Under “all-cause adverse events”, `Cc1cccc(Cn2nc(C3CC3)c3c(NC(=O)c4cnc5cc(OCCN6CCN(C)CC6)ccn45)cccc32)n1` is recorded as 28.1% (CTCAE v4.03, measured: blood CPK increased; advanced solid tumour patients; oral, dose not given, all cohorts, with: pembrolizumab IV every 3 weeks).
`CN1CC[C@@H](c2c(O)cc(O)c3c(=O)cc(-c4ccc(C(F)(F)F)cc4Cl)oc23)[C@@H]1CO`: “patients with adverse event” 5% (measured: grade 3 respiratory failure; relapsed or refractory haematologic malignancy patients; oral, dose not given, phase dose escalation, all doses).
For `Clc1cc(Cl)c(-c2c(Cl)cc(Cl)cc2Cl)c(Cl)c1`, the log K(PDMS-water) was 6.58 ± 0.02 (fresh water; 20 °C, SSP sampler, 100 µm).
For `O=C(O)CCCOc1ccc(F)cc1-c1cc(-c2ccccc2C(F)(F)F)n(-c2ccccc2)n1`, “serum enzyme activity” read 200 ± 47.4 U/L (measured: ALP; Crl:CD(SD) rats, male, serum; iv, 25 µg/kg, 14 days).
For `C=CCNc1c(O)cc2c(O)c1C[C@@H](C)C[C@H](OC)[C@H](O)[C@@H](C)/C=C(\C)[C@H](OC(N)=O)[C@@H](OC)/C=C\C=C(/C)C(=O)N2`, “patients with diarrhoea TEAE” read 0% (unresectable or metastatic STS, GIST, other; intravenous, 300 mg/m^2).
`Clc1ccc(-c2cc(Cl)c(Cl)cc2Cl)cc1Cl`: “literature range factor” 2 (PDMS-water partitioning; PCB compilation; baseline: maximum over minimum K).
`C=CC(=O)N[C@H]1C=C(C)c2c(-c3cnc4ccccc4c3)c3c(N)ncnc3n2C1`: tolerability “not toxic” (measured: body weight; tumour-bearing mice; all doses tested).
`O=S(=O)([O-])C(F)(F)C(F)(F)C(F)(F)C(F)(F)C(F)(F)C(F)(F)C(F)(F)C(F)(F)F.[K+]` — result for “fraction of dose in liver”: about 60% (LC-ESI-MS/MS; mouse, EtOH-fed or pair-fed, liver; oral gavage, 1 mg/kg/day, 10 days; baseline: dose).
The log K(PDMS-water) of `Clc1cc(Cl)c(-c2ccc(Cl)c(Cl)c2Cl)cc1Cl` is reported as 6.43 ± 0.05 (fresh water; 20 °C, S30-2 sampler, 30 µm).
Under “grade 3 Vomiting”, `COc1cc2c(Oc3ccc4[nH]c(C)cc4c3F)ccnc2cc1OCC1(N)CC1` is recorded as 0% (paediatric recurrent refractory sarcoma; concentration not given, whole group).
With `CC1(C)C(/C=C(\Cl)C(F)(F)F)C1C(=O)OC(C#N)c1cccc(Oc2ccccc2)c1` (stereo not drawn) the CLint was 0.45 mL/min/mg protein (pooled human liver microsomes).
`CCN(CCO)CCCC(C)Nc1ccnc2cc(Cl)ccc12` (stereo not drawn) has an anemia patients of 33% (newly diagnosed glioblastoma patients; oral, 200 mg/dose, grade 2, with: radiotherapy and temozolomide).
The remaining peptide of `CC(C)C[C@@H]1NC(=O)CNC(=O)[C@H](CC(N)=O)NC(=O)[C@H](CCCNC(=N)N)NC(=O)[C@H](CCCCN)NC(=O)[C@@H]2CSSC[C@@H]3NC(=O)[C@H]([C@@H](C)O)NC(=O)CNC(=O)CNC(=O)[C@H](C(C)C)NC(=O)[C@@H]4CSSC[C@H](NC(=O)[C@H]([C@@H](C)O)NC(=O)[C@H](CSSC[C@H](NC(=O)[C@H](C(C)C)NC(=O)[C@@H]5CCCN5C1=O)C(=O)NCC(=O)N[C@@H](CCC(=O)O)C(=O)N[C@@H]([C@@H](C)O)C(=O)N4)NC(=O)CNC(=O)[C@@H]1CCCN1C(=O)[C@H]([C@@H](C)O)NC(=O)[C@H](CC(N)=O)NC3=O)C(=O)N[C@@H](CO)C(=O)N[C@@H](Cc1c[nH]c3ccccc13)C(=O)N1CCC[C@H]1C(=O)N[C@@H](C(C)C)C(=O)N2` is reported as 73 ± 0.4% (HPLC; ammonium bicarbonate; 180 µM, 14 days, pH 9.0, 25 °C, deamidation stability).
`O=C(Nc1ccccc1)C1CCN(C(=O)Oc2cccnc2)CC1` — result for “adverse event Nasopharyngitis”: 0% (healthy women; oral, 60 mg, 7 days).
`CO[C@H]1C[C@@H]2CC[C@@H](C)[C@@](O)(O2)C(=O)C(=O)N2CCCC[C@H]2C(=O)O[C@H]([C@H](C)C[C@@H]2CC[C@@H](OC(=O)NCCOCCOCCOCCOCCOCCOCCOCCOCCC(=O)N3CCc4cc(Cn5nc(-c6ccc7oc(N)nc7c6)c6c(N)ncnc65)ccc4C3)[C@H](OC)C2)C[C@@H](O)[C@H](C)/C=C(\C)[C@@H](O)[C@@H](OC)C(=O)[C@H](C)C[C@H](C)/C=C/C=C/C=C/1C` — result for “maculopapular rash incidence”: 0% (patients with advanced solid tumours; intravenous, 10 mg weekly, grade 3 or higher).
For `COc1cc2c(cc1OC)CN(CCc1ccc(NC(=O)c3cccc4c(=O)c5cccc(OC)c5[nH]c34)cc1)CC2`, the Tmax was 2 h (CD-1 mouse, male, plasma; intraperitoneal, 3 mg/kg).
For `C[C@]1(CO)Cc2ncn(-c3ccc(C#N)c(Cl)c3)c2C(=O)O1`, “subjects with drug-related acne” read 0% (human, Chinese; 3 mg single dose).
For `O=C(O)[C@H]1O[C@@H](Oc2cc3oc(-c4ccccc4)cc(=O)c3c(O)c2O)[C@H](O)[C@@H](O)[C@@H]1O`, the Vz/F was 5660 ± 3390 L/kg (Sprague Dawley rat, plasma; oral, 3.34 g lyophilized powder/kg, low dose).
For `CC(=O)c1c(C)c2cnc(Nc3ccc(C4CCN(CCS(C)(=O)=O)CC4)cn3)nc2n(C2CCCC2)c1=O`, “patients with Hypertriglyceridemia” read 22.2% (HR+/HER2- advanced breast cancer patients; oral, dose not given, all grades,, total).
With `NC(=O)[C@@H]1CC(F)(F)CN1C(=O)c1ccc(N2CC(F)(F)C2)c(OCC2CC2)n1` the dose-normalised AUC(0-inf) was 585 kg·ng·h/mL/mg (C57BL/6 mice, plasma; intravenous, dose not given).
With `CN1CCN(c2ccc(Nc3nccc(-c4ccc5ccccc5c4)n3)cc2C(F)(F)F)CC1` the toxicity was 0% (zebrafish embryos; 25 µM, 5 d).
`CC(C)(O)c1cc(Nc2cc(Oc3cn(C4CC4)nc3C3CCOCC3)ccn2)ccn1` — result for “treatment-emergent adverse events”: 15% (Vomiting; advanced cancer patients, grade 4 glioma expansion; oral, 50 mg twice daily, all causality any grade).
The IC50 of `CC(CCc1ccccc1)NC(C)C(O)c1ccc(O)cc1` (stereo not drawn) is reported as 7.94 µM (Plasmodium falciparum; 7G8).
For `COc1ccc(-c2c(-c3ccc(C#N)c(F)c3)nc(N3CCC(N)CC3)n(C)c2=O)cc1F`, “treatment-related adverse event incidence” read 0% (measured: Nausea; relapsed/refractory marginal zone lymphoma patients; oral, 60 mg, any grade, dose expansion).
For `C[C@@H](NC(=O)N1C(=O)[C@H](Cc2ccnc(N)c2)[C@H]1C(=O)O)C1CCCCC1`, “incidence of administration site extravasation” read 0% (healthy adult Chinese volunteers; continuous intravenous infusion, 0.3 mg/kg/h, 5-day infusion, CTCAE 5.0 grading).
`CNC(=O)c1cc(Oc2ccc(NC(=O)Nc3cc(C(C)(C)C)nn3-c3ccc4ncccc4c3)c(F)c2)ccn1` has a related SAE of 3% (left ventricular dysfunction, NCI CTC v3.0; human patients; oral, 150 mg twice daily, tablet, dose at onset).
For `Cc1ccc(F)c2cc(C(=O)N[C@@H]3CCC[C@H](N4CC[C@H](N(C)S(C)(=O)=O)C4)C3)[nH]c12`, the fraction absorbed was 0.7 (CD1 mouse; oral, 30 mg/kg).
Under “CL/F at steady state”, `O[C@H]1CCCN[C@@H]1CCCn1cnc2c(Cl)c(Cl)ccc21` is recorded as 2270 mL/min (healthy humans, plasma; oral, 150 mg, with: pirfenidone 600 mg).
`CN1[C@@H]2CC[C@H]1C[C@@H](OC(=O)c1cc(Cl)cc(Cl)c1)C2` gave an IC50 of 5.01 µM (Plasmodium falciparum; 7G8).
With `CC(C)Nc1ccnc(Nc2cccc(-c3cccnc3)c2)n1` the blood chemistry was 1.8 g/dL (measured: globulin; mouse, blood; intraperitoneal, 10 mg/kg).
